Assay results gathered from unrelated publications.
A part holds a random share of what one study measured. Changes are numbered by the printed parent chain.

Series 1 — method: RNA Bind-n-Seq; form: RNA; medium: in vitro; concentration: not given; reference: input RNA pool; direction: higher = stronger binding; endpoint: bound/input enrichment
Target: RING finger protein unkempt homolog, zinc fingers 1-6, GST-SBP tag (UNK, Homo sapiens, UniProt Q9C0B0, residues 30-357)
Setting: RNA with constant flanks, human-mouse chimeric sites, ends assumed
Constant ends, left off below: GGGAGUUCUACAGUCCGACGAUC … CAACAGAGGAUUGAGCAUCA
Residues (chain): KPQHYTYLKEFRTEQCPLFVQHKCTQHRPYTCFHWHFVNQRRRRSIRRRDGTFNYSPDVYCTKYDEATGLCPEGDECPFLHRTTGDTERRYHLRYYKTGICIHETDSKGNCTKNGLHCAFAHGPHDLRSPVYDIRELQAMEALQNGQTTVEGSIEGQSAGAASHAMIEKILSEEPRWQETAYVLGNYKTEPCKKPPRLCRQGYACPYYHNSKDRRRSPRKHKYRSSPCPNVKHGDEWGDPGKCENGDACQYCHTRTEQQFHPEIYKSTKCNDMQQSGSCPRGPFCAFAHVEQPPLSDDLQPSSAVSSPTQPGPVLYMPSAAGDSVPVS
CGCAGAAGGUUAAAGGGUGAGAGUGGGGUGGAAGACUGUGUCAUGGCCCUAGAAACCCUGUUCAGUGUCCUGCUUUCUCUGUGCAGACUGAUGGCCCCUUACACGCCCUUUCUGACUGAG: 0.0442 ratio
GUGACUGGUGUUAAGAUUUCCCCUCAGCAAAGAAGUGCAGUAGUCACCAUAAUUCCAUCUGUGGUGAGUGCCAGUCAGAUAAAAGAGCUGGUCCCAGACCUCAGUUUAGAUACUGGGACU: 0.227 ratio
GGCCUGGGACCGUCCUGGGCUAGUACAAUAGCGGCAGGUGGAGGCUCAGAGGAAAGUUUUGUUAGUGGAGGCAGUGGUAGAGGCCGUCAUGUACGGUCCUUUACUCGAUAGAUGUGUUCU: 0.639 ratio
GUUCGACUCUGGGAUCAUGCCACAAUGACAGAAGUGAAAUCUCUGAAUUUUAAUAUGUCUGUUAGCAGCAUGGAGUAUAUUCCUGAAGGAGAGAUUUUGGUUAUAACUUAUGGACGAUCU: 0.266 ratio
UCAGGAACCCAGACAAACAUGAAUGUAAAUGAAGUCAUUAGCAACAGAGCAAUUGAAAUGUUAGGAGGUGAACUUGGCAGCAAGAAGCCUGUGCACCCCAACGAUCAUGUUAAUAAAAGC: 0.328 ratio
UAAGUUAUUUUGUACAGCUUUGUAAAUUCUUAACAUUAAUUUGUAAACAUGUUUAUUUUUUUUAGAUAAUUUGGUUCAUUAAGUACAUAGCUAAGGUAAUGAACAUCUUUUUCAGUAAUU: 7.57 ratio
CUGAGGAAUACCACUGAGAGACCUUAAAAGAAUCAUUUUGACGGCUCGUUCGUGCAAGAAUAGUCACUGAUCGGGAAACUGGUUCUUCCAAAGGGUUUGGUUUUGUAGACUUUAAUAGUG: 0.837 ratio
GUAUUUGUGCGCUCCCCACUCGUGUUUUUAAGUGUAUUUUUAUAAGAUACAUGUAUUUACAAUUGAGCUUUUGUUACAUAAUGCUGAAAUGCUACUGGAGAUUAUGAAAAAUGUUUCAAU: 0.127 ratio
CCCCAAUACCAUUUGCAGGUCUGGAACUGCACUCUCUUUUUUAAAAAACAUGUAUACAUUUUAGGGCUGUAGACUUAUUUUCCUGGUUUCUUUUCCAAUUGCUGACUUUUGAGCACAGAA: 2.24 ratio
CCCUCCCGGGCCACCCAACCCCUCCCGGCUCCCCGCCGAGAUCCAGGUUUCUUCUUAUUUCAUAGCCAAUAAGAAAAAUGUUCUACGCACAUUUUGUCCUCAGUAAACGAGGGCCUCUGG: 0.516 ratio
AUCCAGUACUCGAAUCACAAAGAACUAAAGACAGAUAAUACAUUAAACCAACGUGCUCAGGCAGUUCUUCAAGCUGUGACAGCGGUCCAGACAGCAAAUACACCUCUUAGUGGCACCACA: 0.312 ratio

Series 2 — method: protein binding microarray; form: double-stranded DNA, one strand shown; medium: in vitro; concentration: not given; reference: not given; direction: higher = stronger binding; endpoint: E-score
Target: Histone acetyltransferase KAT6A, both winged helices, GST fusion (KAT6A, Homo sapiens, UniProt Q92794, residues 1-181)
Setting: 8-mer, flanks averaged, mean of 2 arrays, mostly near background
Construct (chain): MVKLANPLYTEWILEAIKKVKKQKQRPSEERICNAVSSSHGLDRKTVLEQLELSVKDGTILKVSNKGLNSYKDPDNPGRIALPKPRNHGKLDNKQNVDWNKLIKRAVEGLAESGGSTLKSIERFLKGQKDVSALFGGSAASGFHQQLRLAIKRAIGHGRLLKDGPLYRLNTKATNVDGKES
GCCCGCAC: 0.196
GAAGACTC: -0.0953
GCACAATA: 0.0174
CCTCCGCG: 0.291
CCAAGAGG: -0.217
ATACCCAT: -0.241
CAAAAGAA: -0.0637
ATATGTCA: 0.0131
AAACAGAA: -0.122
CAAGACGC: 0.134
ACAATATG: -0.0632
GTTTTACA: -0.107
AATCTAGA: -0.11
AGCGAACT: -0.198
AGTGGAAT: -0.0406
AGCGAGAA: -0.0932
CCGGTTTA: 0.134
CCCCAAAA: -0.0674
CGCCGAGC: 0.282
ATTCAAAC: -0.0459
ACTAAGAC: -0.0198
ACCTGCCA: -0.252
CCACAGGA: -0.162
AACCGGGA: 0.15
CGCTCGGC: 0.199

Series 3 — method: RNA Bind-n-Seq; form: RNA; medium: in vitro; concentration: 365 nM; reference: no-protein control; direction: higher = stronger binding; endpoint: RBNS enrichment (R)
Target: RNA binding protein fox-1 homolog 2, RRM domain, GST-SBP tag (RBFOX2, Homo sapiens, UniProt O43251-10, residues 100-194)
Setting: natural RNA segment, single round, ends assumed
Constant ends, left off below: GGGAGUUCUACAGUCCGACGAUC … UGGAAUUCUCGGGUGCCAA
Residues (chain): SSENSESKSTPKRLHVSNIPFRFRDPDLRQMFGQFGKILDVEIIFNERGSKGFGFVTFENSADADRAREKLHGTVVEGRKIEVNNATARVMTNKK
GCACAUUUUUGAGUUUUCCCACAUUAUUUGUCUCCAUGAUACCACUCAAGCAGUGUGCUGGACCUAAAAUACUGACUUUAGUUAGUAUCCUUGGAUUUUUAGAUUCCCAG: 0.339
UUUGAAGCCAGCCUGGCUACUUGAGACUCUGUCUCACAAAAGCAAAUAAACAAAGGAUUAUGCUUAAUAGUUUUCAUUGAAGUUUAUUAUAACUUAUUUCAGAUGUGUCC: 0.499
AGGGUUCAUCUUUGCUUUAAUUUUGGCAAAAUGUUAAGCAUUUAUUUUGAGCUAAAAAUAAAAGUUAAUUUCAUACUAUAUAGAUUUUCUUUUUUAUCUUGUAUGUCCCC: 0.561
ACUCACAAACUAAACUCCUUUCUGGUUGUCUGUUUUCAAAAUAGAUACAAUAAACAUUGUUUAUGUCUGGGUGCUGCUGUACAGAAUGCUUCAAGUGUGUUUUGGUUGAA: 0.51
UUCGCCAUGUUGGCCAGGCUGGUCUCGAACCCCUGAGCUCAGGUGAUCCACCUGCCUCGGCCUCCCAAAGUGGGAAAUGGGUCAUUUUCAAAGGGGCAACAGUGAUACCA: 0.273
AUGCCGUCAAGGAAGGAAUUCAGUUACAGGGCAUCUGUAACUUAAAUAUUGUAAGAAUAACUCAUAUGGAAGUUCAAGCUAUUUUUAUACUAUAAUAGAGUUAUUUAAUU: 0.494
UCCUCUUUGCUUGCUCUCACCUCAGGAAUUGCUUGGAUUGCUACAUGGACCCCCUGAGACUAUCAUUAUUACCUCCUAGGGCCAGGAAGCCAGGUAGGUAGUCUGAGUCA: 5.74
AUCUGUCCCUUGACAGGGAAGGUAGGCUUCUGGCUAGCAGAGCAGGUGACACAAACCAGUUUAUUGGAGAACAGCCUGGACAAAGGCCCAUAGGUAGGUAAAAUAGUAUG: 0.514
UUACUCAGUCCCUUUACCUUAGGUGGAAUCUUCUUAAAUUGAAAUUUUUGGUAAGGAAUUCAUUUCACAGGUAGUGUUUCAGACUCUGAAAGCCCUGACUUGGUUCUUGG: 0.625
GUGGAGACCACCGGGGACAGGCUUGCGGACGCCGGCUGUUCUUCCCGCCACGAUCUUUCUGUGGUAGCGGCCAGCAGAAGACAUGGCCUGCUCCCCACUCCCUUUCCCCA: 0.722
CUGAACUCCAGACCCCUCUUUGUGUUGGGCAGUGUCAUCUUGCUUACAAACUGUAAGACACAUUUUUUUGUGUGUUUGUUUUUGUUGUUGUUCUUUUGCAGCACUCACGC: 0.906
GUUUGUAGUUAAGGUGUCUGGGGUAACAGAUAACAUGGGCCUGAGGGAGCCCUCAGGUCUAUAGGAAAGGCCCCUCUUAAGACAGAAACGGUUUAACAGCAAGGGUACAA: 0.977

Series 4 — target: CCNA1, cyclin fold, Cln2 fusion (human); method: yeast growth competition, sequencing; medium: yeast; setting: weak parent motif; reference: not given; direction: higher = stronger binding; endpoint: normalised enrichment score
Parent: SCAPER docking peptide (human); SNARRSLNFGGST; partner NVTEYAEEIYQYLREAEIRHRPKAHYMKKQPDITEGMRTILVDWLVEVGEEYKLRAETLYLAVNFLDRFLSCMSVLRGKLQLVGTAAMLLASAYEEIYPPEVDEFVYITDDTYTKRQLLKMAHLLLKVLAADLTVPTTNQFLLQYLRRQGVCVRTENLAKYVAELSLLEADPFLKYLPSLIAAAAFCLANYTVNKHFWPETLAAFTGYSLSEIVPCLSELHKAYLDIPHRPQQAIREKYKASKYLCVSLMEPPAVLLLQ
S1Q: 0.477
G11T: 0.746
S1G: 0.473
S12Q: 0.427
L7V: 0.152
N8L: 0.213
L7K: 0.549
F9L: 0.202
N8D: 0.431
R5N: 0.198
R5P: 0.294
L7W: 0.0589
T13K: 0.966
F9I: 0.308
A3M: 0.528
F9A: 0.24
N8M: 0.268
R5E: 0.0111
R5K F9L: -0.0764
G10Y: 0.485
S1N: 0.574
S1F: 0.941
R5D: 0.379
N2Q: 0.635
N8T: 0.607

For quick reference, copied from above (series 3):
UUACUCAGUCCCUUUACCUUAGGUGGAAUCUUCUUAAAUUGAAAUUUUUGGUAAGGAAUUCAUUUCACAGGUAGUGUUUCAGACUCUGAAAGCCCUGACUUGGUUCUUGG: 0.625
UUUGAAGCCAGCCUGGCUACUUGAGACUCUGUCUCACAAAAGCAAAUAAACAAAGGAUUAUGCUUAAUAGUUUUCAUUGAAGUUUAUUAUAACUUAUUUCAGAUGUGUCC: 0.499
ACUCACAAACUAAACUCCUUUCUGGUUGUCUGUUUUCAAAAUAGAUACAAUAAACAUUGUUUAUGUCUGGGUGCUGCUGUACAGAAUGCUUCAAGUGUGUUUUGGUUGAA: 0.51
GUGGAGACCACCGGGGACAGGCUUGCGGACGCCGGCUGUUCUUCCCGCCACGAUCUUUCUGUGGUAGCGGCCAGCAGAAGACAUGGCCUGCUCCCCACUCCCUUUCCCCA: 0.722
AUCUGUCCCUUGACAGGGAAGGUAGGCUUCUGGCUAGCAGAGCAGGUGACACAAACCAGUUUAUUGGAGAACAGCCUGGACAAAGGCCCAUAGGUAGGUAAAAUAGUAUG: 0.514
AGGGUUCAUCUUUGCUUUAAUUUUGGCAAAAUGUUAAGCAUUUAUUUUGAGCUAAAAAUAAAAGUUAAUUUCAUACUAUAUAGAUUUUCUUUUUUAUCUUGUAUGUCCCC: 0.561
GUUUGUAGUUAAGGUGUCUGGGGUAACAGAUAACAUGGGCCUGAGGGAGCCCUCAGGUCUAUAGGAAAGGCCCCUCUUAAGACAGAAACGGUUUAACAGCAAGGGUACAA: 0.977
